Results gathered from unrelated publications.
Parts stem from different laboratories: compare values within a part only. Changes are numbered by the printed parent chain.

Sample 1
Target: Histone acetyltransferase KAT6A, winged helix 1, GST fusion (KAT6A, Homo sapiens, UniProt Q92794, residues 1-85)
Technique: protein binding microarray
Form: double-stranded DNA, one strand shown
Sample: in vitro
Concentration: not given
Setting: 8-mer, flanks averaged, mean of 2 arrays, mostly near background
Baseline: not given
Reading: higher = stronger binding
Measurement: E-score
Target sequence (chain): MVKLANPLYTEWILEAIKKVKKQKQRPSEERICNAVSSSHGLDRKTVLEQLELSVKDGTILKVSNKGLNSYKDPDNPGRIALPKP
CTCAAAGA: -0.137
CATTAGAC: -0.00136
CTGATTTA: -0.0436
TTAAGGAA: -0.13
GCGTCTAA: 0.124
ACCATCTC: -0.17
CACCTGGA: -0.348
CAGAGGGC: 0.0703

Sample 2
Target: PABPC1L2, full length, GST fusion (mouse, UniProt A0ABA7IW68)
Technique: RNAcompete
Form: RNA
Sample: in vitro
Concentration: 20 nM
Setting: 7-mer, probes averaged, single round
Baseline: mean of 7-mers
Reading: higher = stronger binding
Measurement: 7-mer Z-score
Residues (chain): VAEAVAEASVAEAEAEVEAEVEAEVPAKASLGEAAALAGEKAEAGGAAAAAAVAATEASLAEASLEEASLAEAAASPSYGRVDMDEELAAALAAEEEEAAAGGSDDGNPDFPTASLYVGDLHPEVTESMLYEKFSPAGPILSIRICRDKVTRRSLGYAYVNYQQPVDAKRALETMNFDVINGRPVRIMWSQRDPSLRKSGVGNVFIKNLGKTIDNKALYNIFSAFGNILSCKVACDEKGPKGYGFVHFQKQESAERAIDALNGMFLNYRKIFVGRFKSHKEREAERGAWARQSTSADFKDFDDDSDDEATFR
UCAGGAC: -0.184
UUGGUGG: -0.132
UAUAACG: -0.117
CUGCUGA: -0.17
GGAUGGC: 0.329
UUAAUCC: -0.289
ACGACUU: -0.00652
UAGGAGA: 0.109

Sample 3
Target: Ras GTPase-activating protein-binding protein 1, C-terminal RGG region (G3BP1, Homo sapiens, UniProt Q13283)
Chain of UniProt Q13283 (whole entry, looked up): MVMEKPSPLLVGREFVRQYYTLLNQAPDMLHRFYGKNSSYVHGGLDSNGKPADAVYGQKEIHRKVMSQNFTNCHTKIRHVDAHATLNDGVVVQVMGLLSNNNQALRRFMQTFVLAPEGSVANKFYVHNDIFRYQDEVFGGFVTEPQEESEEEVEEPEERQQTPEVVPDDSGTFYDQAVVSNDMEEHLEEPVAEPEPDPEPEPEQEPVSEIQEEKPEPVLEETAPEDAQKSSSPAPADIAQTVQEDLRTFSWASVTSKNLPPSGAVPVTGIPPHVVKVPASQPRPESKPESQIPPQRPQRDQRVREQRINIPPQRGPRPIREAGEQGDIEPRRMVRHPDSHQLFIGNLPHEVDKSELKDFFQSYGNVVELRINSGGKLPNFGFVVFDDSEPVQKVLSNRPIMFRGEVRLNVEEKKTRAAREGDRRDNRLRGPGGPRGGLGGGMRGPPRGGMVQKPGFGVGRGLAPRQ
Technique: RNA Bind-n-Seq
Form: RNA
Sample: in vitro
Concentration: 1 µM
Setting: whole 134-nt RNA, ends assumed
Added: 150 mM KCl
Baseline: input library
Reading: higher = stronger binding
Measurement: log2 enrichment
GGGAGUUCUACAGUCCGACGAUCCUGUGCUACACAUCGUAUGUACCGAAUCGGGUUUUUUUGGUUUUUUUGGGGUUUUUUUGGGAAAGUAUUAUGUUACGCCGUUCGGAUCUGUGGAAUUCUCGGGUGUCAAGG: -1.29
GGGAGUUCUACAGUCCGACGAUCGCAGGAAGUAAAAACAAAUGGAAAUGCUUCGGAUAGUGGCAAGGGUGGGGGUUGCUAAGGAAAGGGUGGGAUGGGAGUGGGUAAAGAGUUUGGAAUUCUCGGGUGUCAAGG: 1.28
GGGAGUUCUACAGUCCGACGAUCUGGCCCUGGUGGCAUGCGGGGAGGAAGAGGUGGCCUCAUGGAUCGUGGUGGUCCCGGUGGAAUGUUCAGAGGUGGCCGUGGUGGAGACAGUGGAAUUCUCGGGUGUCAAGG: 2.48
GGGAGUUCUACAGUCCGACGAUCUGCUCUCCGUGCCACAUGCGCCCGCAGGUUACGCCAAGGAGGCCCUGAAUCUGGCGCAGAUGCAGGAGCAGACGCUGCAGUUGGAGCAACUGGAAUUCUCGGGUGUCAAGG: -2.34
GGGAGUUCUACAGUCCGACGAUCCACAGACAAAAAGCACCCACACAGACACAGAGGGAAGGGGUUGGGAUGGGGACAGGGUGCACAGCAGGGCGGGGUAGGACCCCAGCCCCUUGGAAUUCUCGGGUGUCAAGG: -0.28
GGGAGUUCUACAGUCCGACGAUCCCUCAAGUCCUGUGCUACACAUCGUAUGUACCGAAUCGGCGGGGCGGGGCGGGAAAGUAUUAUGUUACGCCGUUCGGAUCUGCACUUCCAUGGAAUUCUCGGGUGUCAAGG: 0.647
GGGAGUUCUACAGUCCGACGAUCACCAUGCAGGUGGGCAUCUUUGGGAAUUGGGGCAAGGGGGGGAUAGGGAGGGGGGUAACACUUUGGGAACAGGUGGUCCCAGGUCGUUUCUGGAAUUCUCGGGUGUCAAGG: -0.844
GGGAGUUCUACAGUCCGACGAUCACAGGAAGUAAAAACAAAUGGAAAUGCUUCGGAUAGUGGCAGGGGUGGGGGUUGCUAAGGAAAGGGUGGGAUGGGAGUGGGUAAAGAGUUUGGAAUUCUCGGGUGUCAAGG: 1.02

Single results of other studies
Starting sequence: PafA, mature enzyme, eGFP fusion (Elizabethkingia meningoseptica, UniProt Q9KJX5); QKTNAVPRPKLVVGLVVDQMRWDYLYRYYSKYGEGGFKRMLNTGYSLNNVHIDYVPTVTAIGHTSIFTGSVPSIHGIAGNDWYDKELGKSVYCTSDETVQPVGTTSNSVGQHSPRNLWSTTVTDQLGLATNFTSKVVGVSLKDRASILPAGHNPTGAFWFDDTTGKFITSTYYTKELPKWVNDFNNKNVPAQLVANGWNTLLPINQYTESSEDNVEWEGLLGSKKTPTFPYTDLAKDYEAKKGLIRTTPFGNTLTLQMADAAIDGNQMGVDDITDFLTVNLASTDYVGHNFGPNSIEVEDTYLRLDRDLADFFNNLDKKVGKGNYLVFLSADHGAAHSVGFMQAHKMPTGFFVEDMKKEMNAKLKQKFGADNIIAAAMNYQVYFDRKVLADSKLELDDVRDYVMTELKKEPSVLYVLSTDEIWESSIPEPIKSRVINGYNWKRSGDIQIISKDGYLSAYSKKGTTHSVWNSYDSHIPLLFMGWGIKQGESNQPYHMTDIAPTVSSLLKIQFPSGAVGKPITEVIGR
S471G — oxyanion analog dissociation constant (vanadate, free oxyanion; microfluidic competitive inhibition; in vitro, cell-free expressed; not given, derived from inhibition constants, unchanged parent 676 nM; lower = stronger binding): 754 nM

Some of these lines once more (sample 2):
UAGGAGA: 0.109
